Assay results gathered from unrelated publications.
Each line is one published result; not all experiments were run side by side.
Organism: Acinetobacter baumannii

CC(C)C[C@H](NC(=O)[C@H](CC(N)=O)NC(=O)[C@H](CCCNC(=N)N)NC(=O)[C@@H](CC(C)C)NC(=O)[C@H](Cc1ccccc1)NC(=O)[C@H](CC(=O)O)NC(=O)[C@H](CCCCN)NC(=O)[C@@H](CC(C)C)NC(=O)[C@H](CCCNC(=N)N)NC(=O)[C@H](CCC(N)=O)NC(=O)[C@@H](NC(=O)[C@@H](CC(C)C)NC(=O)[C@H](CCCNC(=N)N)NC(=O)[C@H](CCCCN)NC(=O)[C@H](Cc1ccccc1)NC(=O)CN)C(C)C)C(=O)N[C@H](C(N)=O)C(C)C  MIC (broth microdilution; B2367-12): 6.2 to 12.5 µM
COc1ccc2ccc3c(c2c1)C=[N+]1C2CCCCC2[N+]2=Cc4cc(C(C)(C)C)cc(C(C)(C)C)c4[O][Au-]21[O]3.F[P-](F)(F)(F)(F)F (stereo not shown)  MIC (bacterial growth, broth microdilution; carbapenem-resistant clinical isolate; 24 h): > 20 µM
CCn1[c]([Au-][Cl])[n+](CC)c2ccc(C(=O)OC)cc21  MIC (broth dilution; DSM 30007; 20 h, 37 °C): 17.2 µM
CCCCCCCNS(=O)(=O)c1ccc(-n2nnc(/C(C)=N/NC(=N)N)c2C)cc1  MIC (microbial growth, broth dilution; AB5075): 64 µg/mL
Nc1nc(-c2ccc3nc(-c4ccccc4)[nH]c3c2)c[nH]1  MIC (ATCC 19606; compound alone): ≥ 200 µM
Oc1c(Br)cc(Br)c2nc3c(C(F)(F)F)cc(C(F)(F)F)cc3nc12  MIC (range over strains): 12.5 to 75 µM
CO[C@@H](C(N)=O)[C@H](NC(=O)c1ccc(NC(=O)c2ccc([N+](=O)[O-])cc2)cc1)C(=O)Nc1ccc(C(=O)Nc2ccc(C(=O)Nc3ccc(C(=O)O)cc3)c(O)c2OC(C)C)cc1  MIC (microbial growth; DSM30008): 1 µg/mL
COc1ccc2ccc3c(c2c1)C=[N+]1C2CCCCC2[N+]2=Cc4ccc(OCCN5CCCCC5)cc4[O][Au-]21[O]3.F[P-](F)(F)(F)(F)F (stereo not shown)  MIC (bacterial growth, broth microdilution; carbapenem-resistant clinical isolate; 24 h): 20 µM
CC(=O)N[C@H](CCCCN)C(=O)N[C@H](CC(C)C)C(=O)N[C@H](CCCCN)C(=O)N[C@H](CO)C(=O)N[C@H](CC(C)C)C(=O)N[C@H](CC(C)C)C(=O)N[C@H](CCCCN)C(=O)N[C@@H](C(=O)N[C@H](CC(C)C)C(=O)N[C@H](CO)C(=O)N[C@H](CCCCN)C(=O)N[C@H](C)C(=O)N[C@H](CCCCN)C(=O)N[C@H](CCCCN)C(=O)N[C@H](CCCCN)C(=O)N[C@H](CCCCN)C(=O)N[C@H](CC(C)C)C(=O)N[C@H](CCCCN)C(=O)N[C@@H](C(=O)N[C@H](CC(C)C)C(=O)N[C@H](CC(C)C)C(=O)N[C@H](CCCCN)C(=O)N[C@H](C)C(=O)N[C@H](CC(C)C)C(=O)N[C@H](CO)C(=O)N[C@H](CCCCN)C(N)=O)[C@H](C)O)[C@H](C)O  MIC (broth microdilution; ATCC 19606; 24 h, 37 °C): 0.7 µM
O=C(NCCNCCO)c1cn(Cc2cccc(Br)c2)c2cc(Cl)c(OCc3ccc(C(F)(F)F)cc3)cc2c1=O  MIC (ATCC 19606; ≥80% growth inhibition): < 0.25 µg/mL

For quick reference, copied from above:
COc1ccc2ccc3c(c2c1)C=[N+]1C2CCCCC2[N+]2=Cc4cc(C(C)(C)C)cc(C(C)(C)C)c4[O][Au-]21[O]3.F[P-](F)(F)(F)(F)F (stereo not shown)  MIC (bacterial growth, broth microdilution; carbapenem-resistant clinical isolate; 24 h): > 20 µM
